Experimental data pooled from the literature.
Compare with care: the assays were run in different laboratories. ± marks the error that the study gave.
Cell line: A549

| Structure (SMILES) | test | setting | IC50 |
| --- | --- | --- | --- |
| COc1ccc(/N=N/C(=S)N2CCCC2)cc1 | cell growth or viability, resazurin | 48 h | > 50 µM |
| COc1cc(N(C)CCN(C)C)c(NC(=O)/C=C/c2ccc(C(F)(F)F)cc2)cc1Nc1nccc(-c2cn(C)c3ccccc23)n1 | cell growth or viability, MTT | 72 h | 0.207 µM |
| N.N.O=C(CCCc1ccccc1)[O][Pt]([Cl])([Cl])[O]C(=O)CCCc1ccccc1 | cell growth or viability |  | 0.17 µM |
| O=C(CN1C(=O)NC(c2ccccc2)(c2ccccc2)C1=O)N/N=C/c1ccccc1 | cell growth or viability, resazurin | 24 h | 350 µM |
| C=C1C2C(OC(=O)c3ccccc3)C3C4N(C)C5C(O)C3(C1O)C(C2OC(C)=O)C41C(OC(C)=O)C(OC(=O)c2ccccc2)CC(C)(C=O)C51 (centres unmarked) | cell growth or viability, MTT |  | 64.2 µM |
| N[C@@H](CNC(=O)c1ccc2[nH]c(C(=O)c3ccc(O)cc3)nc2c1)C(=O)O | cell growth or viability, ATP luminescence | 72 h | > 300 µM |
| O=C(NCCc1ccccc1)c1ccccc1-n1c(=O)[nH]c2ccccc2c1=O | cell growth or viability, MTT | 24 h | 16.4 µM |
| C[OH+][Cu-2]12[O]C(c3cn(-c4ccccc4)nc3-c3ccc(Br)cc3)=N[N+]1=C(C)c1c(cc(C)oc1=O)[O]2 (centres unmarked) | cell growth or viability, MTT | 48 h | 7.06 µM |
| Cc1cc(C)c(N[C](NCc2ccc(N[C](Nc3c(C(C)C)cccc3C(C)C)=[Pt-]([Cl])([Cl])[C]#[N+]c3c(C(C)C)cccc3C(C)C)cc2)=[Au][Cl])c(C)c1 | cell growth or viability |  | > 100 µM |
| Cc1c(C)c(C)[c-](C)c1C.Fc1c[c-]c(-c2ccccn2)cc1.[Cl-].[Ir+3] | SRB | 24 h, 72 h recovery | 2.1 ± 0.3 µM |
| CCN(CC)CCN1C(=O)c2ccc3c4cccc5c(NCCN)ccc(c6ccc(c2c36)C1=O)c54 | cell growth or viability, SRB | 72 h | 5.6 µM |
| CC(=O)O[C@H]1CC[C@]2(C)[C@H]3CC=C4[C@@H]5CC(C)(C)CC[C@]5(C(=O)O)CC[C@@]4(C)[C@]3(C)CC[C@H]2C1(C)C | cell growth or viability, SRB |  | 42.4 µM |
| O=C1CC(c2ccc(O)cc2)Oc2cc(O)cc([O][Ga+][O]c3cc(O)cc4c3C(=O)CC(c3ccc(O)cc3)O4)c21 (centres unmarked) | cell growth or viability, MTT |  | > 200 µM |
| COc1c(O)cc2oc3cc4c(c(O)c3c(=O)c2c1CCC(C)C)CC(O)O4 (centres unmarked) | cell growth or viability | 48 h | 11.8 µM |
| CCCCCCCCSc1nc(N)c2c(F)c(C#N)c(F)c(F)c2n1 | cell growth or viability, MTT | 96 h | > 100 µM |
| CC1CCc2c(sc3ncnc(Nc4ccc(Nc5ncnc6sc7c(c56)CCC(C)C7)cc4)c23)C1 (centres unmarked) | cell growth or viability, MTT |  | 43.1 µM |
| CC(C)=CCc1cc(-c2coc3cc(O)c(CC=C(C)C)c(O)c3c2=O)ccc1O | cell growth or viability, MTT |  | 129 µM |
| CC(=O)O[C@@H]1CC[C@@]2(C)[C@@H](CC[C@]3(C)[C@@H]2C(=O)C=C2[C@@H]4[C@@H](C)[C@H](C)CC[C@]4(C)CC[C@]23C)[C@@]1(C)C(=O)NCCNC(=O)CCCC[P+](c1ccccc1)(c1ccccc1)c1ccccc1 | cell growth or viability, MTT | 48 h | > 30 µM |
| N#Cc1c(F)c(F)c2nc(SCc3ccc4ccccc4c3)nc(N)c2c1F | cell growth or viability, MTT | 96 h | 26.4 µM |
| CN1CCC2(CC1)C/C(=N\NC(=O)Nc1ccc(Cl)cc1)c1ccccc1O2 | cell growth or viability, MTT | 48 h | 8.03 µM |
| N#Cc1cccc(-c2ccc(=O)n(Cc3cccc(-c4ncc(OCC5CCN(CCCCCCCC(=O)Nc6cccc7c6C(=O)N(C6CCC(=O)NC6=O)C7=O)CC5)cn4)c3)n2)c1 (centres unmarked) | cell growth or viability, CCK-8 | 72 h | 8.7 µM |
| CC(=O)O[C@@H]1CC[C@@]2(C)[C@@H](CC[C@]3(C)[C@@H]2C(=O)C=C2[C@@H]4[C@@H](C)[C@H](C)CC[C@]4(C)CC[C@]23C)[C@@]1(C)C(=O)NCCNC(=O)C1CCCCC1 | cell growth or viability, MTT | 48 h | 10.9 µM |

| Structure (SMILES) | test | setting | IC50 |
| --- | --- | --- | --- |
| COc1cc(C(=O)c2[nH]c(N)nc2-c2cccs2)cc(OC)c1OC | cell growth or viability, SRB | 24 h | 0.048 µM |
| C=C1C(=O)[C@@]23CC[C@@H]4[C@](C)(COC(C)=O)CCC[C@@]4(CO)[C@@H]2[C@@H](O)C[C@@H]1C3 | cell growth or viability, MTT |  | > 20 µM |
| COc1ccc(C2C([N+](=O)[O-])C(Cc3ccc(O)cc3)NC23C(=O)c2cccc4cccc3c24)cc1 (centres unmarked) | cell growth or viability, MTT | 48 h | 68.2 µM |
| O=C(NN=Cc1ccc(O)cc1)Nc1cc2c(Nc3ccc(F)c(Cl)c3)ncnc2cc1OC1CCOC1 (centres unmarked) | cell growth or viability, MTT | 72 h | 1.32 µM |
| Cc1cc(C#N)cc(C)c1Oc1cc(Nc2ccc(C#N)cc2)nc2cnccc12 |  | 48 h | > 128 µM |
| C[C@H]1[C@H](C)CC[C@]2(C)CC[C@]3(C)C(=CC(=O)[C@@H]4[C@@]5(C)CC[C@@H](O)[C@](C)(C(=O)NCCNC(=O)C6CC6)[C@@H]5CC[C@]43C)[C@H]12 | cell growth or viability, MTT | 48 h | 14 µM |
| COC(=O)[C@@H]1CCCN1C(=O)[C@H](Cc1ccccc1)NC(=O)OC(C)(C)C | cell growth or viability, SRB |  | 6 µM |
| CC(C)=CCc1c(O)cc2oc3cc(O)c(O)c(CC=C(C)C)c3c(=O)c2c1O | cell growth or viability | 48 h | 10.1 µM |
| Cc1ccc(C2=NN(C3=NC(=O)/C(=C/c4ccc(Cl)cc4)S3)C(c3ccc(F)cc3)C2)cc1 (centres unmarked) | cell growth or viability, MTT |  | 43.1 µM |
| Oc1ccccc1-c1nn(-c2ccccc2)[n+](-c2ccccc2)n1 | cell growth, resazurin |  | 180 ± 20 µM |
| Cc1cc(C)c(N[C](NCc2cccc(N[C](Nc3c(C(C)C)cccc3C(C)C)=[Pt-]([Cl])([Cl])[C]#[N+]c3c(C(C)C)cccc3C(C)C)c2)=[Au][Cl])c(C)c1 | cell growth or viability |  | > 100 µM |
| C=C(C)[C@@H]1CC[C@]2(C(=O)O)CC[C@]3(C)[C@H](CC[C@@H]4[C@@]5(C)CC[C@H](O[C@@H]6O[C@@H](C)[C@H](O)[C@@H](OC)[C@H]6O)C(C)(C)[C@@H]5CC[C@]43C)[C@@H]12 | cell growth or viability, fluorescence | 48 h | 10 µM |
| OC[C@H]1[C@@H](O)[C@@H](O)CN1Cc1ccc(Br)cc1 | cell growth or viability, MTS | 72 h | > 200 µM |
| CC(=O)[O-].O.O.[O-]c1ccc(Br)cc1C=NCCN1CCOCC1.[Zn+2] | cell viability, MTT | 72 h | 30.4 µg/mL |
| COc1ccc(/C=C/C2=[N+]3C(=C(CO)c4c(C)cc(/C=C/c5ccc(OC)cc5)n4[B-]3(F)F)C(C)=C2)cc1 | phototoxicity, resazurin | added: 645 nm light, 9.00 J/cm2 | 0.45 ± 0.14 µM |
| C[C@]12CC/C(=N\OCCN3CCCCC3)C=C1CCC1C2CC[C@]2(C)/C(=C/c3ccccn3)CCC12 (some centres unmarked) | cell growth or viability, MTT | 72 h | 21.3 µM |
| CC1=C(Cn2c3ccc(Cl)c(=O)c-3nc3ccccc32)CCC(C)(C)C1 | cell growth or viability, CCK-8 | 72 h | 0.75 µM |
| S=c1n(-c2ccccc2)c2c3ccccc3nc3[n+]2[n]1[Ir-3]12([S]3)([c]3ccccc3-c3sc4ccccc4[n+]31)[c]1ccccc1-c1sc3ccccc3[n+]12 | cell viability, MTT | irradiation 450 nm, 15.5 mW/cm^2, 15 min | 0.014 ± 0.001 µM |
| C[O][Pt-2]1([Cl])([Cl])([O]C(=O)CCC(=O)OCCOC(=O)CCC(=O)[O][Pt-2]2([Cl])([Cl])([O]C)[NH2+]CC[N+]2(C)C)[NH2+]CC[N+]1(C)C | cell growth or viability, MTT | 96 h | 193 µM |
| Cc1cc(C)c([N+]#[C][Pd-2]([Cl])([Cl])[C]#[N+]c2c(C)cc(C)cc2C)c(C)c1 | cell growth or viability |  | > 100 µM |
| Cl.[Cl][Ru-]1[S+]=C(N2CCCC2)N[N+]1=Cc1ccc(N(c2ccccc2)c2ccccc2)cc1.c1ccccc1 | cytotoxicity, MTT | 24 h | 7.24 ± 5.4 µM |
| COc1ccc(C2=NN(C3=NC(=O)/C(=C/c4ccccc4)S3)C(c3ccc(F)cc3)C2)cc1 (centres unmarked) | cell growth |  | > 100 µM |

For quick reference, copied from above:
| Structure (SMILES) | test | setting | IC50 |
| --- | --- | --- | --- |
| CN1CCC2(CC1)C/C(=N\NC(=O)Nc1ccc(Cl)cc1)c1ccccc1O2 | cell growth or viability, MTT | 48 h | 8.03 µM |
| N#Cc1cccc(-c2ccc(=O)n(Cc3cccc(-c4ncc(OCC5CCN(CCCCCCCC(=O)Nc6cccc7c6C(=O)N(C6CCC(=O)NC6=O)C7=O)CC5)cn4)c3)n2)c1 (centres unmarked) | cell growth or viability, CCK-8 | 72 h | 8.7 µM |
| CC(=O)O[C@@H]1CC[C@@]2(C)[C@@H](CC[C@]3(C)[C@@H]2C(=O)C=C2[C@@H]4[C@@H](C)[C@H](C)CC[C@]4(C)CC[C@]23C)[C@@]1(C)C(=O)NCCNC(=O)C1CCCCC1 | cell growth or viability, MTT | 48 h | 10.9 µM |
| COc1cc(C(=O)c2[nH]c(N)nc2-c2cccs2)cc(OC)c1OC | cell growth or viability, SRB | 24 h | 0.048 µM |
| C=C1C(=O)[C@@]23CC[C@@H]4[C@](C)(COC(C)=O)CCC[C@@]4(CO)[C@@H]2[C@@H](O)C[C@@H]1C3 | cell growth or viability, MTT |  | > 20 µM |
| COc1ccc(C2C([N+](=O)[O-])C(Cc3ccc(O)cc3)NC23C(=O)c2cccc4cccc3c24)cc1 (centres unmarked) | cell growth or viability, MTT | 48 h | 68.2 µM |
